Results from different studies.
Numbered parts are unrelated; each lists some results of a single study. Substitutions count along the parent as printed.

Block 1
Target: Interferon regulatory factor 7, full length, phosphomimetic (IRF7, Homo sapiens, UniProt Q92985, residues 1-503, S101K/S471D/S472D/S475D/S476D/S477D/S483D/S484D/S487D)
Sequence of UniProt Q92985 (whole entry, unmodified, looked up): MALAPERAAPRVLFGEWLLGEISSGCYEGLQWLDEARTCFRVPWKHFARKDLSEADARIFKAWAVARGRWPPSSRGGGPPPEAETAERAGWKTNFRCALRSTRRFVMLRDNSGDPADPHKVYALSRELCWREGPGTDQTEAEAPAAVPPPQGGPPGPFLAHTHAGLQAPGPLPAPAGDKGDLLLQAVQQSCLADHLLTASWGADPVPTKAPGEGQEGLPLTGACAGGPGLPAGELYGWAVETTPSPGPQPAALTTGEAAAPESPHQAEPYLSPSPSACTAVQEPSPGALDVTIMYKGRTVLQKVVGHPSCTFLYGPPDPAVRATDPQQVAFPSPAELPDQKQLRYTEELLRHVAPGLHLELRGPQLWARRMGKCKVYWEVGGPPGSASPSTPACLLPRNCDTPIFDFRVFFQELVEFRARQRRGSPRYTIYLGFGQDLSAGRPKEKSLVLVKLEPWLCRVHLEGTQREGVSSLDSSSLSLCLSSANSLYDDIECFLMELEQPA
Technique: protein-binding microarray
Form: double-stranded DNA, one strand shown
Medium: in vitro
Tested at: 250 nM
Setting: 60-bp whole probe
With: salmon DNA 0.4 mg/ml
Relative to: random background probes
Direction: higher = stronger binding
All sequences stand within: GCCTAGCAC … GTCTTGATTCGCTTGACGCTGCTG
`CTAGCTTCCATTTTCTGAACGTGCTAG` has a log fluorescence of 1.15 z-score.
`TCAGGTTCCGGTTTCGGTTAGTGCTAG` has a log fluorescence of 11.2 z-score.
With `TTAGATCTCAATCTCGATTAGTGCTAG` the log fluorescence was 0.407 z-score.
`TTAGACTTCAGTATCGATTAGTGCTAG` gave a log fluorescence of 0.598 z-score.
With `TTAGGACTGGGAACTGGGTTAGTGCTA` the log fluorescence was -0.387 z-score.
`GACCGTTCCGGTTTCGGGACGTGCTAG` gave a log fluorescence of 5.43 z-score.
`TAATTTTTTAGCTTCTCAATGTGCTAG` has a log fluorescence of -0.0669 z-score.
The log fluorescence of `TCATTTTCCTAATTGAAACTGTGCTAG` is reported as 3.69 z-score.
For `TATTACCTCATCTTCCTCTGCGTGCTA`, the log fluorescence was 1.05 z-score.
With `GGGCATTTTTTTATCAATCAGTGCTAG` the log fluorescence was -0.177 z-score.
With `TTAGGTTTCGAACTGGGTTAGTGCTAG` the log fluorescence was 4.35 z-score.
`TCATTTTTTTTAATTGAACTGTGCTAG` gave a log fluorescence of 0.741 z-score.
`TTAGGTATCCTACCGCTTTAGTGCTAG` gave a log fluorescence of -0.161 z-score.
`TTTCTCTCATTATGTGGGTTGTGCTAG` gave a log fluorescence of 1.74 z-score.
With `TTAGATTCCCGTTTCGATTAGTGCTAG` the log fluorescence was 6.56 z-score.
`GACGGTCTCCCACTGCTGACGTGCTAG` gave a log fluorescence of -0.31 z-score.
`TCAGATGTCAAACTCACACTGTGCTAG` has a log fluorescence of -0.194 z-score.
The log fluorescence of `TTAGGTATCGACACTGGGTTTGTGCTA` is reported as -0.26 z-score.
The log fluorescence of `GACGGTTTCCGTTCCCTGACGTGCTAG` is reported as 7.34 z-score.
The log fluorescence of `GACGATTTCGGACTGGGGACGTGCTAG` is reported as 0.515 z-score.

Block 2
Target: RNA binding protein fox-1 homolog 2, RRM domain, GST-SBP tag (RBFOX2, Homo sapiens, UniProt O43251-10, residues 100-194)
Technique: RNA Bind-n-Seq
Form: RNA
Medium: in vitro
Tested at: 365 nM
Setting: natural RNA segment, single round, ends assumed
Relative to: no-protein control
Direction: higher = stronger binding
Construct (chain): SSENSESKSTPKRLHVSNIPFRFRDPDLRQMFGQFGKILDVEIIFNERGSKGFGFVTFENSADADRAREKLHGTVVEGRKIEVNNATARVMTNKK
Under “RBNS enrichment (R)”, `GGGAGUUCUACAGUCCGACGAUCAAAUCACAGCUUCUAGCUAGGCCAAAAUACUUACUCUACUGAUCUUCAAAAUAAAUGUAUUUCAUAAUUAUUGUGUGUUAAUUUUGACCUCAGAAAUGGAGAUAUGAUGCUGGAAUUCUCGGGUGCCAA` is recorded as 0.653.
For `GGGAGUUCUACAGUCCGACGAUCUCUGGACAGCUCAUUCAAGUGGAUUUUUAACUAUUAGGGAUCACUGCGAAGUUUCGUUGGAUUUUAUUUUAUGUCCUUCAGAGCACCCUCCCCCACCCACUAGGGUCCAGUGGAAUUCUCGGGUGCCAA`, “RBNS enrichment (R)” read 0.28.
`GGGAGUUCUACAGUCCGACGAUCAGGGAUGCAUAAAAUAAUGUUAAUGUUUUCAGUAAUGUCUUCAAGUAGAAGACUUUCUGUUGAACUACUUAUAAGAAAGUAAAAUAAAUAUUGUCUUUUUGUAUGUCACCUGGAAUUCUCGGGUGCCAA` — result for “RBNS enrichment (R)”: 0.446.
`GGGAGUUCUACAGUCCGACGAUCAUAUGUUUAUGUAUAUAUGUGAUUCUGAUAAAAUAGACAUUGCUAUUCUGUUUUUUAUAUGUAAAAACAAAACAAGAAAAAAUAGAGAAUUCUACAUACUAAAUCUCUCUUGGAAUUCUCGGGUGCCAA`: “RBNS enrichment (R)” 0.455.
`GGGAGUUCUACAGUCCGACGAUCUUCCUGGGACUGGCAGCUGGGCCUCCUGGGUGCCAGUCCAUCUCAAGUGCCAUAUUCUGUGAUCACGGAUGUUGGCUCCCCCUCGCCCUAUGCAAGCAAACACACUCUCAUGGAAUUCUCGGGUGCCAA`: “RBNS enrichment (R)” 0.864.
`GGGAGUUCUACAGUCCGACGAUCCUGCUAUUGAUUAGGUUAUACCUGAGGUACUUAAAAUAUGCAGUAGAAUUAAUGUCUUACUAAAGUGCCACAAUUAUUUUUUAAGUAGCUCAGUACAAAUUAAUUUAAGUUGGAAUUCUCGGGUGCCAA`: “RBNS enrichment (R)” 0.55.
`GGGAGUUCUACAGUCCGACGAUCCUUUGUCCUCCGCUAAGAGACCCUGCCCUACCUGGCCGCUGGGCCCCGUGACUUUCCCUUCCUGCCCAGGAAAGUGAGGGUCGGCUGGCCCCACCUUCCCUGUCCUGAUGUGGAAUUCUCGGGUGCCAA`: “RBNS enrichment (R)” 0.193.
`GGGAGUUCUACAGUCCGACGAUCCUGGAACUGAAACUACAACCAAUGUGCUACGGUGGGCGAUUCUUUUCAUGGCCCUUUAUCCUAAUAUUCAAGUACUGGAGAGACCCAGAAGUGUUCCAUCCUGAGCGAUUUGGAAUUCUCGGGUGCCAA` — result for “RBNS enrichment (R)”: 0.378.
`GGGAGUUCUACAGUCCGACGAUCGAGCCCCAUAGCGAGCUUGCCUUUUCUGACUGGGUCUUCUGGUCCCCCCUACACCAGCCAUAGGCCUGUUCUUUUUCUUCCUUCUGAAAACUGUGACCAGUUCAAAUUAUUGGAAUUCUCGGGUGCCAA` — result for “RBNS enrichment (R)”: 0.327.
`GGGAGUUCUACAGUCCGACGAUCUUUCCAUUUCAGUCUGGGGACCCCAUUUCUCCCUCCUUUCCAACUUCCUUCCUUUCUUGUCCUGUUUCCCUUCCUGCCCUUGCAGUCCUGAGGUCCUGCAGCCCCGGCCCUGGAAUUCUCGGGUGCCAA`: “RBNS enrichment (R)” 1.12.
Under “RBNS enrichment (R)”, `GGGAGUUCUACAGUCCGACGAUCGAUGAUAUUCAGUCUGAUGUUCCGCAAUUUUAAAAGUUAUAAUAAAAUACCAUUUUUUUAAUCUGGAGGACAUUGAUAUAUGAAUUCUUAGAAUUUGCUAUUAAAAAGGGUGGAAUUCUCGGGUGCCAA` is recorded as 0.456.
`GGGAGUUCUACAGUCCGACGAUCCUGGAAAUUUCUGCUAACACCAAGAUAUUUAAGAGUGUACAUAGUAGGUGCUCAACAAAUUUAUUGAAUGAAUGAGUGAAUGGAAAAACUGGGAGAGUCAAAAGUGAGCAUGGAAUUCUCGGGUGCCAA` — result for “RBNS enrichment (R)”: 3.24.

Block 3
Target: ABI1, truncated, D143A, DHFR fusion (Arabidopsis thaliana)
Technique: DHFR PCA, deep sequencing
Medium: yeast
Setting: methotrexate growth selection, single substitutions
With: (+)-ABA 58 µM
Relative to: wild-type fitted maximum
Direction: higher = stronger binding
Starting sequence: PYL1, truncated, DHFR fusion (Arabidopsis thaliana); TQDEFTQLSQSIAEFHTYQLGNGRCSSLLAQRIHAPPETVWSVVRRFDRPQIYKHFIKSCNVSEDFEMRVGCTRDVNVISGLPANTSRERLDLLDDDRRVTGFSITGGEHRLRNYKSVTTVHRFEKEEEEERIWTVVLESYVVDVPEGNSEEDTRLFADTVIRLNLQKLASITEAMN
`L156E` — result for “relative binding score”: 70.9%.
Under “relative binding score”, `L169W` is recorded as 1.45%.
`H122D`: “relative binding score” 57.4%.
`A30Q` — result for “relative binding score”: 80.6%.
Under “relative binding score”, `A170G` is recorded as 73.2%.
For `M68G`, “relative binding score” read 68.6%.
For `Q19T`, “relative binding score” read 89.4%.
`Q10M`: “relative binding score” 73.3%.
For `C72L`, “relative binding score” read 65.6%.
Under “relative binding score”, `P83H` is recorded as 8.75%.
`D65F`: “relative binding score” 72%.
`D153G` — result for “relative binding score”: 17.5%.
`L169N`: “relative binding score” -8.8%.

Block 4
Target: Fragile X messenger ribonucleoprotein 1, C-terminal low-complexity region (Fmr1, Mus musculus, UniProt P35922)
Technique: RNA Bind-n-Seq
Form: RNA
Medium: in vitro
Tested at: 200 nM
Setting: whole 134-nt RNA, ends assumed
With: 150 mM KCl
Relative to: input library
Direction: higher = stronger binding
The log2 enrichment of `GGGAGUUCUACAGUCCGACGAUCCGCAGACAACACGCACCCACACAGACACAGAGGGAAGGGGUUGGGAUGGGGACAGGGUGCACAGCAGGGCGGGGUAGGACCCCAGCCCCUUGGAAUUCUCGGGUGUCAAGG` is reported as 1.48.
`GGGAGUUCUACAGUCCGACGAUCUGGCCCUGGUGGCAUGCGGCGAGGAAGAGGUGGCCUCAUGGAUCGUGGUGGUCCCGGUGGAAUGUUCAGAGGUGGCCGUGGUGGAGACAGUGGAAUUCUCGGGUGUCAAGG` has a log2 enrichment of 0.169.
`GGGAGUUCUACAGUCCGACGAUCGCAGGAAGUAAAAACAAAUGGAAAUGCUUCGGAUAGUGGCAGGGGUGGGGGUUGCGAAGGAAAGGGUGGGAUGGGAGUGGGUAAAGAGUUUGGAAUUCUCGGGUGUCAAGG` gave a log2 enrichment of 0.24.
For `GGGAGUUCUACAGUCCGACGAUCUAACUUUAGAGGAGGAUCUGAUGGAUAUGGCAGUGGACGUGGAUUUGGGGAUGGCUAUACUGGGUAUGGAGGAGGACCUGGAGGUGGCAAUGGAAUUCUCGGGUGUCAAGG`, the log2 enrichment was 0.34.
`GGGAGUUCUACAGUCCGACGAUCUAUAUUGAGGUAUAGAGCUAUUCUUUGUAGGUACCCUGGUGAGACCGAUACAAAUAUGCCCCUCCCCAUAAUGGAAUACUAAUUUUUAUUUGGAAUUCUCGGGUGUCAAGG` gave a log2 enrichment of -0.497.
For `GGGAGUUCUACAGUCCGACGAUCUCAAGUCCUGUGCUACACAUCGUAUGUACCGAAUCGGGGUUUGGUUUGGUUUGGGAAAGUAUUAUGUUACGCCGUUCGGAUCUGCACUUCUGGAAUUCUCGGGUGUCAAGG`, the log2 enrichment was -0.142.
`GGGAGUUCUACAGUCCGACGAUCAGUCCUGUGCUACACAUCGUAUGUACCGAAUCGGGCCCCGGGCCCCGGGCCCCGGGGAAAGUAUUAUGUUACGCCGUUCGGAUCUGCACUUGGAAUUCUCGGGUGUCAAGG` gave a log2 enrichment of -1.01.
For `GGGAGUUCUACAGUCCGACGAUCAGUCCUGUGCUACACAUCGUAUGUACCGAAUCGGGGUUUUUGGGGAGGGGUUUGGGGAAAGUAUUAUGUUACGCCGUUCGGAUCUGCACUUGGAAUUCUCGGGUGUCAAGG`, the log2 enrichment was 0.685.
`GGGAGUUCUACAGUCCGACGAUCCCUCAAGUCCUGUGCUACACAUCGUAUGUACCGAAUCGGGUGGGGUGGUGGGGAAAGUAUUAUGUUACGCCGUUCGGAUCUGCACUUCCAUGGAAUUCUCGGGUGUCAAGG` has a log2 enrichment of 1.24.
`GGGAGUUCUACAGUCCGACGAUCUUCAGUAAAAUGGCAGAAGAGAAACUGACCCACAAAAUGGAAGCUAAUAAAGAGAACCGAGAGGCACAAAUGGCUGCCAAACUGGAACGUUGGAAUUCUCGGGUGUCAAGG` gave a log2 enrichment of -0.793.

Block 5
Target: CCNB1, cyclin fold, Cln2 fusion (human)
Technique: yeast growth competition, sequencing
Medium: yeast
Setting: weak parent motif
Relative to: not given
Direction: higher = stronger binding
Starting sequence: CDKN1B docking peptide (human); PSACRNLFGPVDH
For `H13F`, “normalised enrichment score” read 0.634.
Under “normalised enrichment score”, `H13D` is recorded as 0.487.
`P1T`: “normalised enrichment score” 0.937.
Under “normalised enrichment score”, `N6I` is recorded as 0.432.
`G9N` — result for “normalised enrichment score”: 0.289.
Under “normalised enrichment score”, `D12G` is recorded as 0.334.
Under “normalised enrichment score”, `L7S` is recorded as 0.299.
Under “normalised enrichment score”, `G9T` is recorded as 0.61.
`N6V`: “normalised enrichment score” 0.891.
`N6W`: “normalised enrichment score” 0.00689.
Under “normalised enrichment score”, `F8Y` is recorded as -0.412.
`R5Q` — result for “normalised enrichment score”: -0.0196.
`L7R` — result for “normalised enrichment score”: 0.294.
For `N6P`, “normalised enrichment score” read -0.514.
`H13W`: “normalised enrichment score” 0.68.
Under “normalised enrichment score”, `P1C` is recorded as 0.0177.
`P10L` — result for “normalised enrichment score”: 0.621.
Under “normalised enrichment score”, `P10F` is recorded as 0.478.
`L7P`: “normalised enrichment score” -0.036.
Under “normalised enrichment score”, `N6T` is recorded as 0.372.
`C4S`: “normalised enrichment score” -0.000474.
For `C4Q`, “normalised enrichment score” read 0.000458.
`N6D` — result for “normalised enrichment score”: 0.0553.
`S2G` — result for “normalised enrichment score”: -0.317.
`C4M`: “normalised enrichment score” 0.156.

Excerpt of the above (block 1):
With `TTAGATTCCCGTTTCGATTAGTGCTAG` the log fluorescence was 6.56 z-score.
The log fluorescence of `GACGATTTCGGACTGGGGACGTGCTAG` is reported as 0.515 z-score.
`TCAGGTTCCGGTTTCGGTTAGTGCTAG` has a log fluorescence of 11.2 z-score.
The log fluorescence of `TCATTTTCCTAATTGAAACTGTGCTAG` is reported as 3.69 z-score.
